Results gathered from unrelated publications.
Protocols differ between the studies behind these lines.

| SMILES | test system | setting | quantity | value |
| --- | --- | --- | --- | --- |
| Cc1cc(NCCOC(C)C)c2nc(N3CCOC[C@H]3C)cc(=O)n2c1 | C57BL/6 mouse, plasma | intraperitoneal, 10 mg/kg, single dose | MRT(0-t) | 1.06 h |
| O=C(O)c1ccc(/C=C2\SC(=S)N(Cc3cccc(C(F)(F)F)c3)C2=O)cc1 | C57BL/6 mouse, blood | intravenous, 5 mg/kg | MRT(0-inf) | 0.53 h |
| C[C@@H](Nc1nc2c(cnn2C(C)(C)C)c(=O)n1Cc1cccc(F)c1)c1ccc(Cl)cc1 | C57BL/6 mouse, plasma | oral, 5 mg/kg | MRT(0-inf) | 7.34 h |
| CC[C@H](C)[C@H](NC(=O)[C@H](Cc1ccccc1)NC(=O)[C@H](CCC(=O)O)NC(=O)[C@H](CCCCN)NC(=O)[C@H](C)NC(=O)[C@H](C)NC(=O)[C@H](CCC(N)=O)NC(=O)CNC(=O)[C@H](CCC(=O)O)NC(=O)[C@H](CC(C)C)NC(=O)[C@H](Cc1ccc(O)cc1)NC(=O)[C@H](CO)NC(=O)[C@H](CO)NC(=O)[C@@H](NC(=O)[C@H](CC(=O)O)NC(=O)[C@H](CO)NC(=O)[C@@H](NC(=O)[C@H](Cc1ccccc1)NC(=O)[C@@H](NC(=O)CNC(=O)[C@H](CCC(=O)O)NC(=O)[C@H](C)NC(=O)[C@@H](N)Cc1c[nH]cn1)[C@@H](C)O)[C@@H](C)O)C(C)C)C(=O)N[C@@H](C)C(=O)N[C@@H](Cc1c[nH]c2ccccc12)C(=O)N[C@@H](CC(C)C)C(=O)N[C@H](C(=O)N[C@@H](CCCNC(=N)N)C(=O)NCC(=O)N[C@@H](CCCNC(=N)N)C(=O)NCC(=O)O)C(C)C | male CD-1 mouse, plasma | intravenous, 1 mg/kg, single dose | MRT | 0.21 h |
| COc1cnc2cccc(N3CCc4c(cc(Cn5ccnc5)cc4-c4cn(C)nc4C(F)(F)F)C3=O)c2c1 | male CD-1 mouse, plasma | intraperitoneal, 10 mg/kg | MRT(0-inf) | 1 h |
| FC(F)(F)Oc1ccc2[nH]c(-c3ccc(OCCN4CCOCC4)cn3)nc2c1 | mouse, plasma | intraperitoneal, 100 mg/kg | MRT | 1.24 h |
| CCn1cc(-c2cc(Cn3ccnc3)cc3c2CCN([C@H](c2cc(OC)ccn2)C2CC2)C3=O)c(C(F)(F)F)n1 | male CD-1 mouse, plasma | oral, 50 mg/kg | MRT(0-inf) | 2 h |
| CCOC(=O)c1nc2cc(Cl)c(Cl)cc2nc1N1CCN(C(=O)Nc2ccc(N3CCNCC3)cc2)CC1 | male mouse, plasma | intravenous, 3 mg/kg | MRT(0-inf) | 5.36 h |
| COc1ccccc1/C=C/CNCC(O)COc1ccc(Nc2ccccc2)cc1 (racemic) | mouse, plasma | intraperitoneal, 10 mg/kg | MRT(0-t) | 5.52 h |
| O=C1CCC(N2C(=O)c3ccc(N4CCC(C(=O)N5CCC(CCN6CCC(CNC(=O)c7cccc(-c8noc(C(F)(F)F)n8)c7)(c7nc(-c8ccccc8)cs7)CC6)CC5)CC4)cc3C2=O)C(=O)N1 (stereo not drawn) | CD-1 mouse, plasma | intraperitoneal, 30 mg/kg | MRT | 5.49 h |
| COc1cc(OCCN2CCOCC2)cnc1-c1nc2cc(OC(F)(F)F)ccc2[nH]1 | mouse, plasma | oral, 100 mg/kg | MRT | 3.01 h |
| C[C@@]1(c2nc(-c3ccc(F)c4cn[nH]c34)no2)CCCN(C(=O)c2ccc(F)nc2)C1 | male C57BL/6 mouse, plasma | intraperitoneal, 20 mg/kg | MRT(0-t) | 1.1 h |

A few entries again:
| SMILES | test system | setting | quantity | value |
| --- | --- | --- | --- | --- |
| COc1ccccc1/C=C/CNCC(O)COc1ccc(Nc2ccccc2)cc1 (racemic) | mouse, plasma | intraperitoneal, 10 mg/kg | MRT(0-t) | 5.52 h |
| Cc1cc(NCCOC(C)C)c2nc(N3CCOC[C@H]3C)cc(=O)n2c1 | C57BL/6 mouse, plasma | intraperitoneal, 10 mg/kg, single dose | MRT(0-t) | 1.06 h |
